# Earlier results as cited in several papers.
# Lines come from different studies, so protocols differ. ± gives the spread as reported.
# Sequence of UniProt P10635 (whole entry, looked up): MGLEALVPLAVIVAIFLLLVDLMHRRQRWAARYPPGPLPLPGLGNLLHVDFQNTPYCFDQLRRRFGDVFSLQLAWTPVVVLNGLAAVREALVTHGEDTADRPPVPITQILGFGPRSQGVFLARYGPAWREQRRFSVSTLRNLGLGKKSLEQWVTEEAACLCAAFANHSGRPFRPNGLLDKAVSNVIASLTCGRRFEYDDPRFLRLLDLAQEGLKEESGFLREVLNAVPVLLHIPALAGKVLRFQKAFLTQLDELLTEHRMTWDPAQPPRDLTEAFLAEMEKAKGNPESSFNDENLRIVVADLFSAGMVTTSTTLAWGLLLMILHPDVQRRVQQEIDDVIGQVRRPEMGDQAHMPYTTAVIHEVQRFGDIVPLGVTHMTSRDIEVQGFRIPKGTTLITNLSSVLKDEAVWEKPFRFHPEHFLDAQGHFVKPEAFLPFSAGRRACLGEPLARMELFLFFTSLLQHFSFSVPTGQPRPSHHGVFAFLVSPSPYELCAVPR
Structure (SMILES),target or system,test,test system,conditions,endpoint,value
COCCOCCOCCOCCC(=O)NCc1cc(CNC(=O)CCOCCOCCOCCOC)cc(-c2cc3cc4nc(c(OC)c5[nH]c(cc6nc(cc2[nH]3)CC6(C)C)cc5-c2cc(CNC(=O)CCOCCOCCOCCOC)cc(CNC(=O)CCOCCOCCOCCOC)c2)CC4(C)C)c1,,,PBS,room temperature,Soret (B) absorption maximum,358 nm
CC(=O)N1CCC(NC(=O)NC23CC4CC(C)(CC(C2)c2ccccc24)C3)CC1,"Cytochrome P450 2D6 (CYP2D6, Homo sapiens, UniProt P10635)",,,10 µM,inhibition,34 ± 1%
O=C1c2ccccc2-c2c1c1ccc([N+](=O)[O-])cc1c(=O)n2C[C@H](O)CO,OVCAR-3,cell growth,,ovarian cancer panel,GI50,0.309 µM
CC(=O)O[C@@H]1[C@@H](OC(C)=O)C2=C(C(=O)C(O)=C(C(C)C)C2=O)[C@@]2(C)CCCC(C)(C)[C@H]12,HL-60,cell growth,,,GI50,10 to 30 µM
Cc1ccccc1-c1cc(N2CC[N+](C)([O-])CC2)ncc1N(C)C(=O)C(C)(C)c1cc(C(F)(F)F)cc(C(F)(F)F)c1,,,"healthy volunteers, plasma","oral, 450 mg, single dose, netupitant alone",Tmax,4.47 h
CC(=O)O[C@H]1C2=C(C(=O)C(O)=C(C(C)C)C2=O)[C@@]2(C)CCCC(C)(C)[C@@H]2[C@@H]1O,NCI-H460,,,,GI50,≤ 5 µM
CN1CCN(c2cc(-c3ccccc3CO)c(N(C)C(=O)C(C)(C)c3cc(C(F)(F)F)cc(C(F)(F)F)c3)cn2)CC1,,,"healthy volunteers, plasma","oral, dose not given, netupitant-palonosetron, fed",half-life,61.9 h
CC(=O)OC1=C(C(C)C)C(=O)C2=C(C1=O)[C@@]1(C)CCCC(C)(C)[C@@H]1[C@H](OC(C)=O)[C@H]2OC(C)=O,MOLT-3,,,,GI50,≤ 5 µM
O=C1c2ccccc2-c2c1c1ccc([N+](=O)[O-])cc1c(=O)n2C[C@H](O)[C@@H](O)[C@H](O)[C@H](O)CO,UACC-62,cell growth,,melanoma cancer panel,GI50,2.98 µM
Cc1ccccc1-c1cc(N2CCNCC2)ncc1N(C)C(=O)C(C)(C)c1cc(C(F)(F)F)cc(C(F)(F)F)c1,,,"healthy volunteers, plasma","oral, 450 mg, single dose, netupitant alone",Cmax,60.7 ng/mL
